# Measured values collected from several papers.
# Lines come from different studies, so protocols differ. Values joined by “and” are separate records of one study, mostly repeats; a detail may differ. ± gives the spread as reported.
# GLP1R: Glucagon-like peptide 1 receptor (GLP1R, Homo sapiens, UniProt P43220)
# Lysophospholipase-like protein 1: Lysophospholipase-like protein 1 (Mus musculus, UniProt Q3UFF7)
Compound,target or system,test,test system,setting,measurement,value
O=C(Cc1ccc(OCc2ccccc2)cc1)NC1(C(=O)O)CCN(C(=O)c2ccc(-c3cccc(Cl)c3)cc2)CC1,"Probable G-protein coupled receptor 174 (Homo sapiens, UniProt Q9BXC1)","TGF-alpha shedding, agonist",,,EC50,> 10 µM
CC[C@H](C)[C@H](NC(=O)[C@@H]1CCCN1C(=O)CNC(=O)[C@H](Cc1ccccc1)NC(=O)[C@H](CC(N)=O)NC(=O)[C@H](CC(N)=O)NC(=O)[C@H](CO)NC(=O)[C@H](CO)NC(=O)[C@H](Cc1c[nH]cn1)NC(=O)[C@H](CCCNC(=N)N)NC(=O)[C@H](CC(C)C)NC(=O)[C@H](Cc1ccccc1)NC(=O)[C@H](CCC(=O)O)NC(=O)[C@H](C)NC(=O)[C@H](CC(C)C)NC(=O)[C@H](CCCNC(=N)N)NC(=O)[C@H](CCC(N)=O)NC(=O)[C@@H](NC(=O)[C@H](C)NC(=O)[C@@H]1CSSC[C@H](NC(=O)[C@H](CCCCN)NC(=O)CC[C@H](NC(=O)CCCCCCCCCCCCCCCCCCC(=O)O)C(=O)O)C(=O)N[C@@H](CC(N)=O)C(=O)N[C@@H]([C@@H](C)O)C(=O)N[C@@H](C)C(=O)N[C@@H]([C@@H](C)O)C(=O)N1)[C@@H](C)O)C(=O)N[C@@H](CC(C)C)C(=O)N1CCC[C@H]1C(=O)N1CCC[C@H]1C(=O)N[C@H](C(=O)N[C@@H](CC(N)=O)C(=O)N[C@H](C(=O)NCC(=O)N[C@@H](CO)C(=O)N[C@@H](CC(N)=O)C(=O)N[C@H](C(=O)N1CCC[C@H]1C(N)=O)[C@@H](C)O)C(C)C)[C@@H](C)O,"Adrenomedullin receptor AM1; CALCRL/RAMP2 (Homo sapiens, UniProt O60895+Q16602)","cAMP, agonist, TR-FRET",,,EC50,> 0.1 µM
CC1CCc2nccnc21 (stereo not shown),"uncharacterized protein (Bos taurus, UniProt E1BM68)","cAMP level, agonist, cAMP luminescence",HEK293 cells,,EC50,1070 ± 98.9 µM
CC[C@H](C)[C@H](NC(=O)[C@H](Cc1ccccc1)NC(=O)[C@H](CCC(=O)O)NC(=O)[C@H](CCCCN)NC(=O)[C@H](C)NC(=O)[C@H](C)NC(=O)[C@H](CCC(N)=O)NC(=O)CNC(=O)[C@H](CCC(=O)O)NC(=O)[C@H](CC(C)C)NC(=O)[C@H](Cc1ccc(O)cc1)NC(=O)[C@H](CO)NC(=O)[C@H](CO)NC(=O)[C@@H](NC(=O)[C@H](CC(=O)O)NC(=O)[C@H](CO)NC(=O)[C@@H](NC(=O)[C@H](Cc1ccccc1)NC(=O)[C@@H](NC(=O)CNC(=O)[C@H](CCC(=O)O)NC(=O)[C@H](C)NC(=O)[C@H](Cc1c[nH]cn1)NCc1c[nH]cn1)[C@@H](C)O)[C@@H](C)O)C(C)C)C(=O)N[C@@H](C)C(=O)N[C@@H](Cc1c[nH]c2ccccc12)C(=O)N[C@@H](CC(C)C)C(=O)N[C@H](C(=O)N[C@@H](CCCCN)C(=O)NCC(=O)N[C@@H](CCCNC(=N)N)C(N)=O)C(C)C,GLP1R,"reporter gene, agonist, luciferase",,,EC50,2.51e-06 µM and 4.7e-06 µM
CCC(CC)n1c(Cc2cccs2)nc2cc(C(=O)NC(CC(=O)O)CC(C)C)ccc21 (stereo not shown),"Apelin receptor (APLNR, Homo sapiens, UniProt P35414)","cAMP, agonist, luciferase",,,EC50,0.01 µM
CC(C)C[C@H](NC(=O)[C@H](CCCN)NC(=O)CNC(=O)[C@@H](NC(=O)[C@H](C)NC(=O)[C@@H]1CSCSC[C@H](NC(=O)CC[C@H](N)C(=O)O)C(=O)N[C@@H](CC(N)=O)C(=O)N[C@@H]([C@@H](C)O)C(=O)N[C@@H](C)C(=O)N[C@@H]([C@@H](C)O)C(=O)N1)[C@@H](C)O)C(=O)N[C@@H](C)C(=O)N[C@@H](CCC(=O)O)C(=O)N[C@@](C)(Cc1ccccc1)C(=O)N[C@@H](CC(C)C)C(=O)N[C@H](C(=O)N[C@@H](CCCNC(=N)N)C(=O)N[C@@H](CO)C(=O)N[C@@H](CO)C(=O)N[C@@H](CC(N)=O)C(=O)N(C)[C@@H](CC(N)=O)C(=O)N[C@@H](Cc1ccccc1)C(=O)NCC(=O)N1CCC[C@H]1C(=O)N[C@@H](CCCCNC(=O)CC[C@H](NC(=O)CC[C@H](NC(=O)CCCCCCCCCCCCCCCCCCC(=O)O)C(=O)O)C(=O)O)C(=O)N[C@@H](CC(C)C)C(=O)N1CCC[C@H]1C(=O)N1CCC[C@H]1C(=O)N[C@H](C(=O)N[C@@H](CCC(=O)O)C(=O)N[C@H](C(=O)NCC(=O)N[C@@H](CO)C(=O)N[C@@H](CC(N)=O)C(=O)N[C@H](C(=O)N[C@@H](Cc1ccc(O)cc1)C(N)=O)[C@@H](C)O)C(C)C)[C@@H](C)O)C(C)C,"Calcr/Ramp1 (Rattus norvegicus, UniProt P32214+Q9JJ74)","cAMP accumulation, agonist, HTRF",UMUC3 cells,"30 min, 37 °C, 0.1% casein, no albumin",EC50,5.4e-06 µM
O=C(c1ccc(C2CCCCC2)cc1)N1CCCC1,,liver microsome stability,rat liver microsomes,1 µM,hepatic clearance,52 mL/min/kg
O=C(NC[C@@H](Cc1ccc(F)cc1)N1CCC(O)(C(F)(F)F)CC1)C1(c2ccc(Cl)cc2)CCCC1,"Transient receptor potential cation channel subfamily A member 1 (TRPA1, Homo sapiens, UniProt O75762, M912A)",,,,EC50,0.18 µM
CC[C@H](C)[C@H](NC(=O)[C@H](Cc1ccccc1)NC(=O)[C@H](CCC(=O)O)NC(=O)[C@H](CCCCN)NC(=O)[C@H](C)NC(=O)[C@H](C)NC(=O)[C@H](CCC(N)=O)NC(=O)CNC(=O)[C@H](CCC(=O)O)NC(=O)[C@H](CC(C)C)NC(=O)[C@H](Cc1ccc(O)cc1)NC(=O)[C@H](CO)NC(=O)[C@H](CO)NC(=O)[C@@H](NC(=O)[C@H](CC(=O)O)NC(=O)[C@H](CO)NC(=O)[C@@H](NC(=O)[C@H](Cc1ccccc1)NC(=O)[C@@H](NC(=O)CNC(=O)[C@H](CCC(=O)O)NC(=O)[C@H](C)NC(=O)[C@H](Cc1c[nH]cn1)NCc1ccc(O)cc1)[C@@H](C)O)[C@@H](C)O)C(C)C)C(=O)N[C@@H](C)C(=O)N[C@@H](Cc1c[nH]c2ccccc12)C(=O)N[C@@H](CC(C)C)C(=O)N[C@H](C(=O)N[C@@H](CCCCN)C(=O)NCC(=O)N[C@@H](CCCNC(=N)N)C(N)=O)C(C)C,GLP1R,"reporter gene, agonist, luciferase",,,EC50,2e-06 µM and 2.8e-06 µM
CNc1ncnc2c1ncn2C1OC(CO)C(O)C1O (stereo not shown),"Adenosine receptor A3 (ADORA3, Homo sapiens, UniProt P0DMS8, I253M)","G protein activation, agonist",,,EC50,0.047 µM
CC(C)(Cn1cc(CNc2ccc(C(=O)NCCC(=O)O)cc2)nn1)c1ccc(Cl)cc1,GLP1R,agonist,human cells,,EC50,2.71 µM
CS(=O)(=O)c1ccc(-c2ccc([C@H]3[C@@H](F)[C@@H](F)C[C@@H](F)[C@H]3F)cc2)cn1,,liver microsome stability,human liver microsomes,"1 µM, without NADPH",hepatic clearance,3.9 mL/min/kg
Cc1nc2ccc(S(=O)(=O)n3nc(NCc4ccc(Cl)cc4)nc3N)cc2s1,Lysophospholipase-like protein 1,"enzyme activity, activator, gel-based ABPP",,,EC50,> 20 µM
Cn1c(=O)n(C2CCC(=O)NC2=O)c2ccc(C3CCN(CC(=O)Nc4cccc(CS(=O)(=O)N5CC[C@H](Nc6cccc(-c7sc(C(=O)O)c(OCC(=O)O)c7Cl)c6)CC5(C)C)c4)CC3)cc21 (stereo partly shown),"Tyrosine-protein phosphatase non-receptor type 2 (PTPN2, Homo sapiens, UniProt P17706)","enzyme activity, inhibitor, DiFMUP phosphatase",,,EC50,0.015 µM
CC(C)Oc1cc(Cl)ccc1CNc1cc(-c2ccccc2)nc2ncnn12,"G-protein coupled receptor 3 (GPR3, Homo sapiens, UniProt P46089, V196W)","cAMP level, agonist, cAMP GloSensor",,V196W mutant,EC50,3.34 µM
COc1ccc(C(=O)c2c(C(=O)NCCCN(C)C)oc3ccc(Cl)cc3c2=O)cc1OC,"Growth hormone secretagogue receptor type 1 (GHSR, Homo sapiens, UniProt Q92847, A204E)","Gαq dissociation, TRUPATH BRET",HEK293T,,EC50,1.17 µM
COC(=O)c1cccc(C(=O)c2n[nH]c3ccccc23)c1,"Aryl hydrocarbon receptor (AHR, Homo sapiens, UniProt P35869)","reporter gene, agonist, luciferase",,,EC50,0.139 µM
CSCC[C@H](NC(=O)[C@H](CC(C)C)NC(=O)CNC(=O)[C@H](Cc1ccccc1)NC(=O)[C@H](Cc1ccccc1)NC(=O)[C@@H](N)CCC(N)=O)C(N)=O,"Substance-P receptor (TACR1, Homo sapiens, UniProt P25103)","cAMP, agonist, BRET",,,EC50,2 µM
Nc1nc(NCc2ccc(Cl)cc2)nn1S(=O)(=O)c1cccc2cccnc12,Lysophospholipase-like protein 1,"enzyme activity, activator, gel-based ABPP",,,EC50,> 20 µM
